Measurements collected from several papers.
Parts stem from different laboratories: compare values within a part only. Changes are numbered by the printed parent chain.

Series 1
Target: Fragile X messenger ribonucleoprotein 1, C-terminal low-complexity region (Fmr1, Mus musculus, UniProt P35922)
Technique: RNA Bind-n-Seq
Molecule type: RNA
Matrix: in vitro
Concentration: 200 nM
Setting: whole 134-nt RNA, ends assumed
With: 150 mM LiCl
Relative to: input library
Direction: higher = stronger binding
Each molecule: 7-deaza-guanosine replaces G
Constant ends, left off below: GGGAGUUCUACAGUCCGACGAUC … UGGAAUUCUCGGGUGUCAAGG
Sequence | log2 enrichment
AAGUCCUGUGCUACACAUCGUAUGUACCGAAUCGGUUUUUUUGGUGGAAAAAAAGGAAAGUAUUAUGUUACGCCGUUCGGAUCUGCACUU | -2.73
GCCAUGCAGGUGGGCAUCUUUGGGAAGUGGGGCAAGGGGGGGAUAGGGAGGGGGGUAACACUUUGGGAACAGGUGGUCCCAGGUCGUUUC | 1.36
GGUGCGGCUCUAUGAGUGGACAACAGAGAAGGAGCUGCGCACUGAGUGCAACCACUACAACAACAUCAUGGCCCUCUACCUGAAGACCAA | -0.448
CCUGUGCUACACAUCGUAUGUACCGAAUCGGCCCCCCGGGGCCCCCCGGGGCCCCCCGGGGAAAGUAUUAUGUUACGCCGUUCGGAUCUG | -2.99
UGGAGAUGACAGAAAUGACUGGUGUGUCGCUGAAACGUGGGGCACUGGUUGUCGAAGAUAAUGACAGUGGAGUCCCAGUUGAAGAGACAA | -3.8
CACAGACAACACGCACCCACACAGACACAGAGGGAAGGGGUUGGGAUGGGGACAGGGUGCACAGCAGGGCGGGGUAGGACCCCAGCCAAA | -0.122
AGUCCUGUGCUACACAUCGUAUGUACCGAAUCGGCCCCGGGGCCCCGGGCCCCGGGGAAAGUAUUAUGUUACGCCGUUCGGAUCUGCACU | -3.56

Series 2
Target: CCND2, cyclin fold, Cln2 fusion (human)
Technique: yeast growth competition, sequencing
Matrix: yeast
Setting: weak parent motif
Relative to: not given
Direction: higher = stronger binding
Starting sequence: CDKN1C docking peptide (human); TSACRSLFGPVDH; partner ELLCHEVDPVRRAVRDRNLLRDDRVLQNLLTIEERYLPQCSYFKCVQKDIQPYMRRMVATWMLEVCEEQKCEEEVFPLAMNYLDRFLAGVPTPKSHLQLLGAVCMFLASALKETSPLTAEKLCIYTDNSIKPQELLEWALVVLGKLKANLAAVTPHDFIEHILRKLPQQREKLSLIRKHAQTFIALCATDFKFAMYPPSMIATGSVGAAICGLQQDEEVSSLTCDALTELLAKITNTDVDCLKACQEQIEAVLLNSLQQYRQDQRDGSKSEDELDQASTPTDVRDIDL
Variant | normalised enrichment score
TSACRSLFGPVDA [H13A] | 0.25
TSACRSLFAPVDH [G9A] | 0.342
TSACRSLAGPVDH [F8A] | 0.235
TSACRALFGPVDH [S6A] | 0.343
ASACRSLFGPVDH [T1A] | 0.273
TSACRSLFGPVAH [D12A] | -0.0109
TSACRSLLGPVDH [F8L] | -0.0494

Series 3
Target: Phosphate system positive regulatory protein PHO4, full length, GST-tagged (PHO4, Saccharomyces cerevisiae, UniProt P07270, residues 1-312)
Technique: competition protein-binding microarray
Molecule type: double-stranded DNA, one strand shown
Matrix: in vitro
Concentration: 2 µM
Setting: whole 60-bp probe, lowest competitor level
With: Cbf1 competitor, 0.05 µM
Direction: higher = stronger binding
Constant ends, left off below: … GTCTTGATTCGCTTGACGCTGCTG
Construct (chain): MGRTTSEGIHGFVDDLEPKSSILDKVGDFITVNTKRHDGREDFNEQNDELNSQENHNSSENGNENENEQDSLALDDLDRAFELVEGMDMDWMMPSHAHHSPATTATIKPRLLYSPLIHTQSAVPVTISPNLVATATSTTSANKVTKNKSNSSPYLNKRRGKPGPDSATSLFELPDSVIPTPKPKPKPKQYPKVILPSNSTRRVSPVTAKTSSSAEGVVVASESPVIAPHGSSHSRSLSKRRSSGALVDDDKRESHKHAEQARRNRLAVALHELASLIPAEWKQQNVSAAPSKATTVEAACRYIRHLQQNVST
Sequence | fluorescence intensity [a.u.]
CCAGCAGGAAATAGCCCCGTGCTTTTCCATCCTGAC | 10200
ACAGGCAGGGGGTCCCACGATTCCTGTGCCGACATT | 7230
AAATTACTAAGTTGGCACGTGGGTGACGCCGTATGA | 19900
CTAACGAAGGTTTGCGCCGTGGGTGACAAGCCAAGT | 4910
GGAGAAGGATTAGATCTCGTGCCGAACGACAGCAAG | 10700
GAAAGTACGAATTACCACGTCACTGTCATTTAGGTT | 5830
CTTTCCCGATCTTGTACCGTGGGTGTAGCACATTTG | 5670
AATTTCGGAGAATCTCACATGCCACTGAAGATTAAA | 6590
CGCCAGCAGTGAAACCTCGTGGGACAAAGCCGGTTC | 10300
TGCGCAACAACTTGAGACGTGGGTGTATGTCTAGAA | 6750
TTAGTGCAAGAGGCACACATGCAGATTATGCATCAG | 8600
CTCTTTGAATGCTGTCACCTGTTACTGTGAAGACCA | 5590
AAAGCGGTAATTTGGGGTGTGGGTGCAGATATCTAT | 7540
TGCGCAACAACTTGGCCAGTGGGTGTATGTCTAGAA | 4400
TTATGACTGCGAATGTCCGTGCAATGCGGCCCAATT | 5050
CTTCTGTAAATTTGGATCGTGGGTGGACGCGCCCCG | 8180

Series 4
Target: Interferon regulatory factor 7, full length, phosphomimetic (IRF7, Homo sapiens, UniProt Q92985, residues 1-503, S101K/S471D/S472D/S475D/S476D/S477D/S483D/S484D/S487D)
Technique: protein-binding microarray
Molecule type: double-stranded DNA, one strand shown
Matrix: in vitro
Concentration: 250 nM
Setting: 60-bp whole probe
With: salmon DNA 0.4 mg/ml
Relative to: random background probes
Direction: higher = stronger binding
Constant ends, left off below: GCCTAGCAC … GTCTTGATTCGCTTGACGCTGCTG
Construct (chain): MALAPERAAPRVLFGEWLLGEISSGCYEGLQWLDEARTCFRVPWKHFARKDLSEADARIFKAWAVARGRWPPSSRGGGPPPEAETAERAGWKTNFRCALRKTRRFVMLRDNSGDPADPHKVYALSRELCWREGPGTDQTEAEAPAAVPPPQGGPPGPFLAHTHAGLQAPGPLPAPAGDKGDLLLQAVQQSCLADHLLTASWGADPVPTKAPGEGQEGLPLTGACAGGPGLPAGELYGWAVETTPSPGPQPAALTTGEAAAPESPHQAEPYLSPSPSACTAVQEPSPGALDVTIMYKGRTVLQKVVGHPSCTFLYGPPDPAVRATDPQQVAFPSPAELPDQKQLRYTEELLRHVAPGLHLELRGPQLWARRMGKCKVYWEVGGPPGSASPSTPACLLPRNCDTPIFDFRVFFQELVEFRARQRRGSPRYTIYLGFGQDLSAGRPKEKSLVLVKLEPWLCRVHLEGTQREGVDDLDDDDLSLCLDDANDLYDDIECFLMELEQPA
Sequence | log fluorescence [z-score]
ACTGCTCTGTTGCCTGGTCCTGTGCTA | -0.284
TCATTTTTCATTTTTTTACTGTGCTAG | 1.61
CAGCCGCACAGCATGAGTTCGTGCTAG | -1.06
AACGATTTCAGTTTCGAGACGTGCTAG | 4.98
TTGGGACTGCTTTTCCTTTAGTGCTAG | 1.29
GAAGGTTTCGGACTGGGGACGTGCTAG | 3.52
GACGGAATCCTTCTCCTGACGTGCTAG | -0.374
GACGGACTGGACACTGGGGTCGTGCTA | -0.54
GGTTTTCTGGTTCCCATTCCGTGCTAG | 5.28
TAAGGTCTCGGTATCGGTTAGTGCTAG | 3.49
TCAGTTTTCTCTATTGCACTGTGCTAG | 1.18
GACGATACCGGGTTTCGAGACGTGCTA | 2.91
GACGGACAGGGGACTGGGGACGTGCTA | -0.488
TTAGATTTCAGTATCGAATAGTGCTAG | 0.681
GACGATTCCAATTTCGAGACGTGCTAG | 1.03
ATATATGTATATATGTGTATGTGCTAG | 0.581
TTAGATCTCATACTGGATTAGTGCTAG | -0.0041
CCAGCAGGGTTAGGCTTGCTGTGCTAG | -0.986
ATAGATTTCAGACTGGATTAGTGCTAG | -0.0744
TTAGTTATCCTTCTCCTTTAGTGCTAG | 0.76
GACGATTTCAGACTAGAGACGTGCTAG | 0.32
TCACGGCTCTAAACTCATACTGTGCTA | -0.52
AAGGTTATCCATCTCAAGTAGTGCTAG | -0.0936
TCATGTTCCCTCATCAGACTGTGCTAG | 1.3
CTCACCCAGTCCAGACACCCGTGCTAG | -0.213

Series 5
Target: Sal-like protein 4, full length isoform A (SALL4, Homo sapiens, UniProt Q9UJQ4, residues 1-1053)
UniProt Q9UJQ4, sequence (whole entry, looked up): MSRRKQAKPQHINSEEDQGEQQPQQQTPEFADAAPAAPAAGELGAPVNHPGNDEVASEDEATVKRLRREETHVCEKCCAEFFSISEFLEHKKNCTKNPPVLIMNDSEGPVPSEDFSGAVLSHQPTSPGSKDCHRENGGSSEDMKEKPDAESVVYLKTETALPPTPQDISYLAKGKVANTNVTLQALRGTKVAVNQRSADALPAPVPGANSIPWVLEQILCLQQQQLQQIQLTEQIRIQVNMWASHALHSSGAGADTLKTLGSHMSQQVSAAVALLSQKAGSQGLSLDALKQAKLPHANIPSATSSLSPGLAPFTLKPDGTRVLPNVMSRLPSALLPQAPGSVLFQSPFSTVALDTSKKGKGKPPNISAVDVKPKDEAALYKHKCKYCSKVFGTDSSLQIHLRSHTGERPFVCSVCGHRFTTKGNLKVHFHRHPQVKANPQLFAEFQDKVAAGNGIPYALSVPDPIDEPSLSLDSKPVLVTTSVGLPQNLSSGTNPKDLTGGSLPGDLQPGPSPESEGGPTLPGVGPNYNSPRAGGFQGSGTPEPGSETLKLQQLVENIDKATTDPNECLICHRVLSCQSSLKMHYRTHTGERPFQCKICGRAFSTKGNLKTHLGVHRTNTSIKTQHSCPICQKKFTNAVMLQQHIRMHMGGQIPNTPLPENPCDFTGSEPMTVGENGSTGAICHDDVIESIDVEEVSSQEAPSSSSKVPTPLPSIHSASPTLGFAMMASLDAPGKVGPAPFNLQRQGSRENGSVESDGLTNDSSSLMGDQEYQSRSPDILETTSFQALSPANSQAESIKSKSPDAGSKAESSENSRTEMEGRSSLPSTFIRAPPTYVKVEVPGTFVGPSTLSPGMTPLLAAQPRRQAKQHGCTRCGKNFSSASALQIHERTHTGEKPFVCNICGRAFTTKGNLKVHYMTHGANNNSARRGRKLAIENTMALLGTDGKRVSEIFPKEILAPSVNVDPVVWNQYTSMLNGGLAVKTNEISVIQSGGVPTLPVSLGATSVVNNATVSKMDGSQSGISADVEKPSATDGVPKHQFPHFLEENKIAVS
Technique: universal PBM
Molecule type: double-stranded DNA, one strand shown
Matrix: in vitro
Concentration: 600 nM
Setting: 8-mer, flanks averaged, mean of replicates
Direction: higher = stronger binding
Sequence | E-score
AAGCCAGT | -0.00613
CGTGCCTC | -0.22
GCCTTGCC | -0.228
ACTGACCA | -0.189
ACTCACCA | 0.0534
AGTAACCC | -0.01
GCCTTGGA | -0.097
GATTGTAC | -0.103
GAAATGCC | -0.0285
GATCCGAA | -0.074
ACCTTTAC | 0.0173
GAACGTAC | -0.156
CCTTACGC | 0.00709
ACTCACCG | -0.114
GATGAGAC | 0.03
GGGACGAC | -0.245
CACCTAAC | -0.0712
AGCAGAGG | -0.0907
CTTGGCTC | -0.128
CCCTAGCA | -0.15
ATCACAGA | 0.0897
AAAGATAA | 0.354
GATTTGAC | 0.0667

Series 6
Target: Histone acetyltransferase KAT6A, both winged helices, GST fusion (KAT6A, Homo sapiens, UniProt Q92794, residues 1-181)
Technique: protein binding microarray
Molecule type: double-stranded DNA, one strand shown
Matrix: in vitro
Concentration: not given
Setting: 8-mer, flanks averaged, mean of 2 arrays, mostly near background
Relative to: not given
Direction: higher = stronger binding
Residues (chain): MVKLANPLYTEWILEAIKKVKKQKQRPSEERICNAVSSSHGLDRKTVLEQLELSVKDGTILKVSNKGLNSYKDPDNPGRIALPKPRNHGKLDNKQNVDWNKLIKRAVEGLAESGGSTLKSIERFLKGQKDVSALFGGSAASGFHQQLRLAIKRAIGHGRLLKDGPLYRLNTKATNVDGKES
Sequence | E-score
AACGTAAG | -0.0779
ATTGAACC | -0.0384
CTTGACCA | -0.254
ACCTCCAA | -0.212
ACCGTTCG | 0.0368
CATGTAGC | 0.0284
GCTACTAC | 0.00645
CTAAATAG | -0.0319
GAGCCGTA | 0.252
CGGACCCA | 0.115
CTAGACAA | -0.178
ACGGTCGC | 0.188
GAGAAGCC | -0.0148
GAGGGTCC | -0.106
TCGATGCA | -0.184
TACGTAGA | -0.023
TCAAACGA | 0.111
CGCCAAGA | 0.0898
AATCACTC | -0.198
TATCAATA | -0.067
GAGAGTGA | -0.181
CAGGGAGG | -0.202
AGGCCACA | -0.115
CGGTCGTA | 0.19
CAGCGAGG | -0.118

Other studies, line by line
Substance | target | assay | system | conditions | how to read | quantity | value
PhoQ, residues 284 288 289 292 302 303 SIHLQL | PhoP, residues 12 14 15 18 19 TQAIL (Escherichia coli, UniProt P23836) | Sort-seq, item: YFP reporter | E. coli | PhoQ-PhoP variant library, with: 10 µM Mg2+ | relative to: high Mg2+ state, higher = stronger signaling | fold induction | 23.6
